Assay results pooled from the literature.
Parts stem from different laboratories: compare values within a part only. Substitutions count along the parent as printed.

Set 1
Target: ABI1, truncated, D143A, DHFR fusion (Arabidopsis thaliana)
Technique: DHFR PCA, deep sequencing
Sample: yeast
Setting: methotrexate growth selection, single substitutions
Added: (+)-ABA 17 µM
Baseline: wild-type fitted maximum
Reading: higher = stronger binding
Parent: PYL1, truncated, DHFR fusion (Arabidopsis thaliana); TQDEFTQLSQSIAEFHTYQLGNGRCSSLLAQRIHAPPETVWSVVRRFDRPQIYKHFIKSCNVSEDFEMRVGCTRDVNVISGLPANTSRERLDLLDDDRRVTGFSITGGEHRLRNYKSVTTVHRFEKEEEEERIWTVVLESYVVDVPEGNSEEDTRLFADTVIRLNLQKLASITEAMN
`T101N`: “relative binding score” 5.64%.
`F15Y`: “relative binding score” 83.5%.
`G108P`: “relative binding score” 0.331%.
For `D75A`, “relative binding score” read 75.7%.
Under “relative binding score”, `E67G` is recorded as 66.8%.
`A35Q` — result for “relative binding score”: 15.3%.
Under “relative binding score”, `T6R` is recorded as 86.4%.
For `T106Y`, “relative binding score” read 81.5%.
`K116A`: “relative binding score” 61.3%.
For `H122E`, “relative binding score” read 45.5%.
Under “relative binding score”, `E131A` is recorded as 86.4%.
`D153V` — result for “relative binding score”: 0.521%.
For `Y115T`, “relative binding score” read 15.3%.
`D92H` — result for “relative binding score”: 8.48%.
Under “relative binding score”, `E109Q` is recorded as 84.6%.
Under “relative binding score”, `V78W` is recorded as 43.5%.
For `W134C`, “relative binding score” read 97.5%.
For `R46Q`, “relative binding score” read 87.2%.
`K54L` — result for “relative binding score”: -8.18%.
`R111E` — result for “relative binding score”: -7.1%.
Under “relative binding score”, `I105G` is recorded as -14.2%.
`L169I` — result for “relative binding score”: -31.1%.
For `R123W`, “relative binding score” read 36.9%.
`Q31L`: “relative binding score” 17%.
`V40L` — result for “relative binding score”: -0.803%.

Set 2
Target: RING finger protein unkempt homolog, zinc fingers 1-6, GST-SBP tag (UNK, Homo sapiens, UniProt Q9C0B0, residues 30-357)
Technique: RNA Bind-n-Seq
Molecule type: RNA
Sample: in vitro
Concentration: not given
Setting: RNA with constant flanks, human-mouse chimeric sites, ends assumed
Baseline: input RNA pool
Reading: higher = stronger binding
Shared flanks, not repeated: GGGAGUUCUACAGUCCGACGAUC … CAACAGAGGAUUGAGCAUCA
Residues (chain): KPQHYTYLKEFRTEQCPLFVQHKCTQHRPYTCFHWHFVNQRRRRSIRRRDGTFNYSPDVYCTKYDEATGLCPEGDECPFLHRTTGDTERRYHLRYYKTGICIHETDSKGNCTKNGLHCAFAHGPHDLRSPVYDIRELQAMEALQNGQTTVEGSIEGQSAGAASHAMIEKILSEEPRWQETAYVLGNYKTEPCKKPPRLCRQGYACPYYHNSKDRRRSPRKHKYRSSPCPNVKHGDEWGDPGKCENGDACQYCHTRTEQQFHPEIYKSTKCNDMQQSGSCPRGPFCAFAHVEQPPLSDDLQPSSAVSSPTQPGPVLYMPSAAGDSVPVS
`AAAGUGGACUAUGGCGAGUACAUGGAUAAAAACAAUGUGAGGCGGCAAGCAACAACAAUCAUAGCUGAUAACAUUAUAUUUCUGAGUGACCAGACGAAAGAGAAGGAAUAGAACGGAUGA` has a bound/input enrichment of 2.4 ratio.
With `UUUCUACUGCAGCAGACGAUGCUAAGAAUUAAGGAUCCUAAGAAGUCACUGGAUUUUUAUACGAGGGUUCUUGGACUGACCCUCCUGCAGAAGCUUGACUUCCCUGCUAUGAAGUUCUCG` the bound/input enrichment was 0.149 ratio.
`UCCCAAAUUAUAAGGCACCUUGAAAUAUUGAGACAAACACUCCACACACAGGGAAGGCGAUAACAUUGUACAUUGGUUUACAUUUUUUCCCCCUGUGGAUUUUUCUAGAGGUCAUAGUGC` gave a bound/input enrichment of 0.246 ratio.
The bound/input enrichment of `GGCCUGGGACCGUCCUGGGCUAGUACAAUAGCGGCAGGUGGAGGCUCGAGAGGAAAGUUUGUUAGUGGAGGCAGUGGAGAGGUCGUCCAUGUACGGUCCUUUACUCGAUAGAUGUGUUCU` is reported as 0.566 ratio.
The bound/input enrichment of `GCAAAGGAUGAUGAGGCGGCAGCUGUUGCCCUUUCCUCCCUGAUUCAUGCUUUGGAUGAGUUAAACAUGGUCGCCAUAGUUCGAUAUGCUUAUGACAAAAGAUCUAAUCCUCAAGUUGGU` is reported as 0.418 ratio.
`CUUAAUGUUAAUAUUUUUAAAGGAAGCAAGCUAAAAUGUCUGCUUUUGGUACAACACGCAUUAAUAAAAGGUUAAGUUUUGUUUUCCCUCCACUGAAUAUUUAACAUCUCAGAAAAAAAC` gave a bound/input enrichment of 0.109 ratio.
With `GCUCCUCCCCGCUCUGCAGCCUGGGGACUUUUGGCAACAUUUUUUUUCCAGCUUUCUUUUAAAACUCUCAGUGUAACUGUAUCCCGUGACAUUUCAUUUUUUUUAAAUAGUGUAUUUUUU` the bound/input enrichment was 7.4 ratio.
`ACCAUUUUCGCGGUUCAGGCUUUGUGUGUAGUUCACUCUAUGUAUUAAAUUAUUAUUGCCCUUAGUUUAUAAUAAGGAUAAUUGCAUUUAAAGAGGUUACUGAAUGUUACUCUGAAACUU` has a bound/input enrichment of 1.01 ratio.
With `GGGGAGAAACCUUACGAAUGCGUUCAGUGUGGGAAAUCCUACAGUCAGAGCUCAAACCUUUUUAGACAUCAGAGACGACACAAUGCAGAAAAACUUUUGAAUGUUGUGAAGGUUUAAGAA` the bound/input enrichment was 0.116 ratio.
For `AUCAAAUAUUUUGGGGACAUCAUUAGUGUGGGACAGAGACUGUUGCAAGGAGCUCGGAUCUUAGGGAUUCCAGUUAUCAUAACGGAACAAUACCCCAAAGGACUUGGGAGCACGGUUCAA`, the bound/input enrichment was 0.261 ratio.
The bound/input enrichment of `CGCUUGGAUGAGGCGGGUGUCACAGAUGAAGUGCUAGAUUCUGCCAUGCAAGCCUUCCUUCUGGAGGUUAUCGUUAAGCAUGGGGAGCCGGCACCUUAUUUAUGUAACAAAGAUCCGUUU` is reported as 0.0746 ratio.

Set 3
Target: CCNF, cyclin fold, Cln2 fusion (human)
Technique: yeast growth competition, sequencing
Sample: yeast
Setting: strong parent motif
Baseline: not given
Reading: higher = stronger binding
Parent: WEE1 docking peptide (human); HKTFRKLRLFDTP
`HKTFRKLRHFDTP [L9H]`: “normalised enrichment score” 0.694.
Under “normalised enrichment score”, `HKTFRFLRLFDTP [K6F]` is recorded as 0.782.
For `HKTFRKKRLFDTP [L7K]`, “normalised enrichment score” read 0.89.
`HKTFRKLTLFDTP [R8T]`: “normalised enrichment score” 1.99.
Under “normalised enrichment score”, `HKTFRKLRLFDEP [T12E]` is recorded as 3.75.
For `HKTFRKLRLCDTP [F10C]`, “normalised enrichment score” read 1.83.
Under “normalised enrichment score”, `HKTFRKLRLFDTA [P13A]` is recorded as 2.44.
`HKTERKLRLFDTP [F4E]` — result for “normalised enrichment score”: 1.49.
`KKTFRKLRLFDTP [H1K]`: “normalised enrichment score” 2.85.
`HKTFRKLDLFDTP [R8D]`: “normalised enrichment score” 2.48.
`HKTFRKLRLFMTP [D11M]`: “normalised enrichment score” 2.33.
`HKTFRKLRMFDTP [L9M]`: “normalised enrichment score” 2.19.
`HKTFRKLELFDTP [R8E]` — result for “normalised enrichment score”: 3.65.
`HKTFRKFRLFDTP [L7F]` — result for “normalised enrichment score”: 2.18.
For `HKTFRKLRLFDTC [P13C]`, “normalised enrichment score” read 3.03.
`HKTFRKLHLFDTP [R8H]`: “normalised enrichment score” 2.88.
Under “normalised enrichment score”, `HKDFRKLRLFDTP [T3D]` is recorded as 0.805.
For `HKTFRKGRLFDTP [L7G]`, “normalised enrichment score” read 2.1.
Under “normalised enrichment score”, `HKTFRKLRLKDTP [F10K]` is recorded as 1.4.
`HKTFRKLRLFDQP [T12Q]` — result for “normalised enrichment score”: 0.863.
For `HKTFRKLRLFDTN [P13N]`, “normalised enrichment score” read 2.6.
`HSTFRKLRLFDTP [K2S]`: “normalised enrichment score” 2.54.

Set 4
Target: Ras GTPase-activating protein-binding protein 1, full length (G3BP1, Homo sapiens, UniProt Q13283)
Chain of UniProt Q13283 (whole entry, looked up): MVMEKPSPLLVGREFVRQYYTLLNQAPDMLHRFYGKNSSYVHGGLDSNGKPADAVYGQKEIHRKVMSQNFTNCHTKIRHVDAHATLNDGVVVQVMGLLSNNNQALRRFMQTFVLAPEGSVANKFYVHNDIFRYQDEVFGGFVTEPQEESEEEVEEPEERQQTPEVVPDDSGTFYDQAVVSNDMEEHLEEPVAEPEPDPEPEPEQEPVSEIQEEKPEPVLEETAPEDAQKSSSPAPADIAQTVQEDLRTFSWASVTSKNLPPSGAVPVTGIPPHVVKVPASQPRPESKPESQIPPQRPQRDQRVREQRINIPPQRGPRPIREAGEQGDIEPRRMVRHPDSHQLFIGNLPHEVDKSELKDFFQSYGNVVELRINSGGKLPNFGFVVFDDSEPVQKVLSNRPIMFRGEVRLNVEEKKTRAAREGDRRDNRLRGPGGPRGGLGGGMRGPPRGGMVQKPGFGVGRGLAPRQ
Technique: RNA Bind-n-Seq
Molecule type: RNA
Sample: in vitro
Concentration: 200 nM
Setting: whole 134-nt RNA, ends assumed
Added: 150 mM LiCl
Baseline: input library
Reading: higher = stronger binding
All molecules: 7-deaza-guanosine replaces G
Shared flanks, not repeated: GGGAGUUCUACAGUCCGACGAUC … UGGAAUUCUCGGGUGUCAAGG
`AAGUCCUGUGCUACACAUCGUAUGUACCGAAUCGGGGCCCGGGCCCGGGGCCCGGGGAAAGUAUUAUGUUACGCCGUUCGGAUCUGCACU` gave a log2 enrichment of -0.353.
`CAAGUCCUGUGCUACACAUCGUAUGUACCGAAUCGGGUUUGGGAGGGUUUUUGGGAAAGUAUUAUGUUACGCCGUUCGGAUCUGCACUUC` has a log2 enrichment of 0.14.
With `UGCUAGGCAAUGGAUCACUUGGAGUCCUUUAUUGCUGAAUGUGAUCGGAGAACUGAGCUCGCCAAGAAGCGGCUGGCAGAAACACAGGAG` the log2 enrichment was -0.459.
`UCCUGUGCUACACAUCGUAUGUACCGAAUCGGGGCCCCCCGGGCCCCCCGGCCCCCCGGAAAGUAUUAUGUUACGCCGUUCGGAUCUGCA` gave a log2 enrichment of 0.227.
For `AAGUCCUGUGCUACACAUCGUAUGUACCGAAUCGGGUUUUGGUUUUGGGUUUUGGGGAAAGUAUUAUGUUACGCCGUUCGGAUCUGCACU`, the log2 enrichment was 0.332.
For `GUCCUGUGCUACACAUCGUAUGUACCGAAUCAAAUUUUUAAACCCCCCCAAACCCAAAAAAGUAUUAUGUUACGCCGUUCGGAUCUGCAC`, the log2 enrichment was 0.82.
For `GGUAUUCUGCAAGUACUGUAGAUGUUAUAGAAAUGAUGGAGGAUGAUAAAGUUGAUCUGAAUUUGAUUGUUGCCCUCAUCCGAUACAUUG`, the log2 enrichment was -1.31.
The log2 enrichment of `CACAGACAACACGCACCCACACAGACACAGAGGGAAGGGGUUGGGAUGGGGACAGGGUGCACACCAGGGCGGGGUAGGACCCCAGCCCCU` is reported as -0.484.
The log2 enrichment of `GUCCUGUGCUACACAUCGUAUGUACCGAAUCGGUUUUUGGGGUUUUUGGGUUUUUGGGAAAGUAUUAUGUUACGCCGUUCGGAUCUGCAC` is reported as -0.159.
With `UCCUGUGCUACACAUCGUAUGUACCGAAUCGGGCCCCCGGGGCCCCCGGGGCCCCCGGGAAAGUAUUAUGUUACGCCGUUCGGAUCUGCA` the log2 enrichment was -2.07.
`CACAGACAACACGCACCCACACAGACACAGAGGGAAGGGAAAGGGAUGGGGACAGGGUGCACAGCAGGGCGGGGUAGGACCCCAGCCCCU` has a log2 enrichment of -0.518.

Set 5
Molecule: PhoQ, residues 284 288 289 292 302 303 ALASRC
Technique: Sort-seq
Refers to: YFP reporter
Sample: E. coli
Setting: PhoQ-PhoP variant library
Added: 10 µM Mg2+
Baseline: high Mg2+ state
Reading: higher = stronger signaling
For PhoP, residues 12 14 15 18 19 LHHYF (Escherichia coli, UniProt P23836): fold induction read 7.51.
For PhoP, residues 12 14 15 18 19 TPWTL (Escherichia coli, UniProt P23836): fold induction read 1.46.
It gave 10.4 for fold induction (PhoP, residues 12 14 15 18 19 VGHWL (Escherichia coli, UniProt P23836)).
The fold induction was 10.1 (PhoP, residues 12 14 15 18 19 NFFVT (Escherichia coli, UniProt P23836)).

Excerpt of the above (set 3):
`HKTFRKLRMFDTP [L9M]`: “normalised enrichment score” 2.19.
For `HKTFRKLRLCDTP [F10C]`, “normalised enrichment score” read 1.83.
`HSTFRKLRLFDTP [K2S]`: “normalised enrichment score” 2.54.
Under “normalised enrichment score”, `HKTFRKLRLFDTA [P13A]` is recorded as 2.44.
`KKTFRKLRLFDTP [H1K]`: “normalised enrichment score” 2.85.
`HKTFRKLRLFMTP [D11M]`: “normalised enrichment score” 2.33.
`HKTFRKFRLFDTP [L7F]` — result for “normalised enrichment score”: 2.18.
Under “normalised enrichment score”, `HKTFRKLRLFDEP [T12E]` is recorded as 3.75.
